# Published values gathered from unrelated publications.
# Protocols differ between the studies behind these lines. “And” joins repeats or separate records; there may be more than shown.
Molecule,test,test system,conditions,how to read,endpoint,value
Pillar[6]MaxQ,"host-guest binding, isothermal titration calorimetry",20 mM sodium phosphate buffer,"pH 7.4, with: phencyclidine",,Kd,17.1 nM
AEOL 10150,multiplex immunoassay,"rat, status epilepticus, piriform cortex","sc, 7 mg/kg every 4 h, 24 h, from 5 min post-SE",,KC/GRO level,no effect
cisplatin,UV-Vis spectroscopy,0.1% DMSO in water,1 mM,,saturating cyanide concentration,~25 mM
CCC1C(=O)N(C2CCN([C@H]3CC[C@@H]4CCCc5cccc3c54)CC2)c2ccccc21 (relative stereo),tail-flick test,mouse,"subcutaneous, 3 mg/kg, with: naloxone 1 mg/kg pretreatment 10 min",,antinociception,inhibited
CC1(C)C(C(Cl)Cl)C2(Cl)C(Cl)C(Cl)C1(Cl)C2(Cl)Cl (stereo not drawn),indirect competitive ELISA,rabbit antiserum,cross-reactivity,,IC50,> 1 µg/mL
C=CCN1CC[C@]23c4c5ccc(O)c4O[C@H]2C(=O)CC[C@@]3(O)[C@H]1C5,"respiration, whole-body plethysmography",Swiss Webster mouse,"subcutaneous, 3 mg/kg, with: fentanyl 0.15 mg/kg subcutaneous",,time to minute volume rise,≤ 10 min
O=C(N[C@H]1CC[C@@]2(O)[C@H]3Cc4ccc(O)c5c4[C@@]2(CCN3CC2CC2)[C@H]1O5)c1cccc2cc[nH]c12,"antagonist, drug discrimination",rat,"subcutaneous, 10 mg/kg, trained fentanyl 0.04 mg/kg vs saline, with: fentanyl",,duration of attenuation,≤ 300 min
C=CCN1CC[C@]23c4c5ccc(O)c4O[C@H]2C(=O)CC[C@@]3(O)[C@H]1C5,,"rat, fentanyl overdose model","s.c., 0.2 mg/kg, 10.5 (unit not given), repeated doses as rescue",,survival time,12 h and 48 h and 15 h
NC(=O)c1cc[n+](COC[n+]2ccccc2/C=N/O)cc1.[Cl-].[Cl-],"reactivator, up-and-down method",mice,,baseline: NIMP LD50 untreated,protective ratio,2.63 fold NIMP LD50
hydroxocobalamin,survival,zebrafish larvae 6 dpf,"4 h, DMSO solution, with: KCN 100 µM",,EC100,100 µM
O/N=C/c1cc[n+](COC[n+]2ccc(/C=N/O)cc2)cc1.[Cl-].[Cl-],"reactivator, up-and-down method",mice,,baseline: NIMP LD50 untreated,protective ratio,2.85 fold NIMP LD50
CN1CC[C@]23c4c5ccc(O)c4O[C@H]2[C@@H](O)C=C[C@H]3[C@H]1C5,body temperature decrease,C57BL/6J male mice,subcutaneous,,ED50,12.4 mg/kg

# A few entries again:
Molecule,test,test system,conditions,how to read,endpoint,value
AEOL 10150,multiplex immunoassay,"rat, status epilepticus, piriform cortex","sc, 7 mg/kg every 4 h, 24 h, from 5 min post-SE",,KC/GRO level,no effect
CC1(C)C(C(Cl)Cl)C2(Cl)C(Cl)C(Cl)C1(Cl)C2(Cl)Cl (stereo not drawn),indirect competitive ELISA,rabbit antiserum,cross-reactivity,,IC50,> 1 µg/mL
